Measurements from different studies.
A part holds a random share of what one study measured.

Block 1
Target: Interferon regulatory factor 5, full length, phosphomimetic (IRF5, Homo sapiens, UniProt Q13568-2, residues 1-514, S451D/S453D/S456D/S462D)
Technique: protein-binding microarray
Form: double-stranded DNA, one strand shown
Matrix: in vitro
Tested at: 940 nM top
Notes: 60-bp whole probe
With: salmon DNA 0.4 mg/ml
Baseline: random background probes
Reading: higher = stronger binding
Constant ends, left off below: GCCTAGCAC … GTCTTGATTCGCTTGACGCTGCTG
`GACGGACCGGGTTTCGGGACGTGCTAG` — result for “fitted relative affinity”: 2.42 z-score.
Under “fitted relative affinity”, `GACGGTTCCGGTTTGGGGACGTGCTAG` is recorded as 2.78 z-score.
`GACAGACTGGGGTATCGGGACGTGCTA`: “fitted relative affinity” 0.176 z-score.
Under “fitted relative affinity”, `GACGGACTGGGGACTGGGGTCGTGCTA` is recorded as -0.29 z-score.
Under “fitted relative affinity”, `GACGATTTCAGTCCCGAGACGTGCTAG` is recorded as 0.396 z-score.
`TTAGGTATCGGGACTGGGCTAGTGCTA`: “fitted relative affinity” 4.36 z-score.
For `GACGGTATCGGACTGGGGACGTGCTAG`, “fitted relative affinity” read 2.55 z-score.
For `GAATGTCTTCCCCTCTCATTGTGCTAG`, “fitted relative affinity” read 0.664 z-score.
`TTAGGTTTCGGTTTCGGCTAGTGCTAG`: “fitted relative affinity” 16 z-score.
Under “fitted relative affinity”, `TTAGATCTCTGTCTCGATTAGTGCTAG` is recorded as 1.91 z-score.
`AACGGTTTCGACACTGGGGACGTGCTA`: “fitted relative affinity” 7.27 z-score.
Under “fitted relative affinity”, `TCCACTTGTCTTTTCACTTTGTGCTAG` is recorded as 1.41 z-score.
`TTAGGTCTCCTACTCCTTTAGTGCTAG` — result for “fitted relative affinity”: 0.418 z-score.
`TCATCTTGCTTTTTAGAACTGTGCTAG`: “fitted relative affinity” 0.694 z-score.
For `TTAGGCTTCGGTCTCGGTTAGTGCTAG`, “fitted relative affinity” read 2.01 z-score.
`GGCCGTCTGAGCTCCGTAGCGTGCTAG`: “fitted relative affinity” -0.861 z-score.
`GACGGACTGCTACAGCTGACGTGCTAG`: “fitted relative affinity” -0.45 z-score.
Under “fitted relative affinity”, `CTAATTTTCATTTTCCAAATGTGCTAG` is recorded as 1.03 z-score.
`CCGAAAATGCCCTTTTGGTGAGTGCTA`: “fitted relative affinity” 0.276 z-score.
`TTCTATGTCTGTTTTTGCTTGTGCTAG`: “fitted relative affinity” 0.769 z-score.
For `TTGGGACTGGGGACTGGGTTAGTGCTA`, “fitted relative affinity” read -0.216 z-score.
For `ATATATATTCATATATATATGTGCTAG`, “fitted relative affinity” read 0.374 z-score.
`GACGGTATCGGGTTTCCGGACGTGCTA` — result for “fitted relative affinity”: 5.05 z-score.
`TTATGTATCCTTATCCTTTAGTGCTAG` — result for “fitted relative affinity”: 0.859 z-score.
`CAGAAAATAGAAACTCGTGTTGTGCTA`: “fitted relative affinity” 0.55 z-score.

Block 2
Target: Ras GTPase-activating protein-binding protein 1, RRM domain (G3BP1, Homo sapiens, UniProt Q13283)
Sequence of UniProt Q13283 (whole entry, looked up): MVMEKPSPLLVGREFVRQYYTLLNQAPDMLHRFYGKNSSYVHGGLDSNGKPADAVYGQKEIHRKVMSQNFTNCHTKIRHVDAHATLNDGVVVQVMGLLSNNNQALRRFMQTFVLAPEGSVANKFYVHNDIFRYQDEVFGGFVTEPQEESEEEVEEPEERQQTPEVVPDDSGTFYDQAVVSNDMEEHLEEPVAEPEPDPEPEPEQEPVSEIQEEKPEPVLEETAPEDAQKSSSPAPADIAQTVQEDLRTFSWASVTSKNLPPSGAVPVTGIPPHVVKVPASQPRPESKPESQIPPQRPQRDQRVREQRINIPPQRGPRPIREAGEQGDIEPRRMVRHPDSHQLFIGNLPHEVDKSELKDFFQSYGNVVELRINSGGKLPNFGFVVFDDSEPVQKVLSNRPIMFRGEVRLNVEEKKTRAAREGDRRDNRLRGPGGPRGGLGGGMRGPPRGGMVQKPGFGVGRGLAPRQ
Technique: RNA Bind-n-Seq
Form: RNA
Matrix: in vitro
Tested at: 1 µM
Notes: whole 134-nt RNA, ends assumed
With: 150 mM KCl
Baseline: input library
Reading: higher = stronger binding
Constant ends, left off below: GGGAGUUCUACAGUCCGACGAUC … UGGAAUUCUCGGGUGUCAAGG
For `AAAUAUCAGUGAUCAUCGCAAGGAAGGAGGCAGACAAGAGUAAGGCACACCUGACUCUUAGGACUAGCAGUCAGAACCAGGAGGAAAGGU`, the log2 enrichment was -0.173.
For `AAGUCCUGUGCUACACAUCGUAUGUACCGAAUCGGAAAGGAAAAAGGUUUUUUUGGAAAGUAUUAUGUUACGCCGUUCGGAUCUGCACUU`, the log2 enrichment was -0.185.
`UUGUGAGAGCCACAGGAAAAGCAAGAAGGAGAAGAAGAAAAAGAAAAAGAGGAAACACAAGAAAGAGAAGAAGAAGAAAGACAAAGAGCA` has a log2 enrichment of 0.251.
With `CAAGUCCUGUGCUACACAUCGUAUGUACCGAAUCGGUUUUUGGAAAAAGGUUUGGAAAGUAUUAUGUUACGCCGUUCGGAUCUGCACUUC` the log2 enrichment was -0.384.
`GUAGCUGCUCCAGUGGGCCCAGUGGGCCCCACUCCUACAGUUUUGCCCAUGGGAGCCCCUGUUCCCCGGCCUCGUGGUCCCCCACCGCCC` has a log2 enrichment of -0.396.
For `UAACUUUAGAGGAGGAUCUGAUGGAUAUGGCAGUGGACGUGGAUUUGGGGAUGGCUAUAAUGGGUAUGGAGGAGGACCUGGAGGUGUCAA`, the log2 enrichment was -0.278.
With `GUCCUGUGCUACACAUCGUAUGUACCGAAUCGGUUUUUUUGGAAAAAGGAAAAAAAGGAAAGUAUUAUGUUACGCCGUUCGGAUCUGCAC` the log2 enrichment was -0.15.
`UCUCUCUCUUUCCCUCUAGGGUCACAUCUCCCAGGAAGAUCUCACUUCCCCACAGAAGCUCUUGGCCUGGCCUCCUGCAGUGCCACGCUC` gave a log2 enrichment of 0.219.
For `UUGUUUUUUUUUUGUUCUUUUUUUCCAUGUCACUAAAGGCCCUCGGGACCAAGGAUCACGUCAUGACUCCGGUGAGUUCACACGUGGUGG`, the log2 enrichment was -1.28.
With `GCAGGAAGUAAAAACAAAUGGAAAUGCUUCGGAUAGUAAAAGGGGUGGGGGUUGCUAAGGAAAGGGUGGGAUGGGAGUGGGUAAAGAGUU` the log2 enrichment was 1.35.
With `AAGUCCUGUGCUACACAUCGUAUGUACCGAAUCGGGGUUUUUGGGGUGGGGUGGGGAAAGUAUUAUGUUACGCCGUUCGGAUCUGCACUU` the log2 enrichment was 0.732.
`UCCUGUGCUACACAUCGUAUGUACCGAAUCGGGGUUUUUGGUUUUUGGGGUUUUUGGGGAAAGUAUUAUGUUACGCCGUUCGGAUCUGCA` gave a log2 enrichment of -0.118.
For `UGGGAGGUGGAUUUUGUUUAUUUUUUUAGCUCAUUUCCAGGGGUGGGAAUUUUUUUUUAAUAUGUGUCAUGUAUAAAGUUGUUUUUGAAA`, the log2 enrichment was 2.19.
The log2 enrichment of `CACAGACAACACGCACCCACACAGACACAGAGGGAAGGGGUUGGGAUGGUGACAGGGUGCACAGCAGGGCGGGGUAGGACCCCAGCCCCU` is reported as -0.107.

Block 3
Target: RNA binding protein fox-1 homolog 2, RRM domain, GST-SBP tag (RBFOX2, Homo sapiens, UniProt O43251-10, residues 100-194)
Technique: RNA Bind-n-Seq
Form: RNA
Matrix: in vitro
Tested at: 365 nM
Notes: natural RNA segment, single round, ends assumed
Baseline: no-protein control
Reading: higher = stronger binding
Constant ends, left off below: GGGAGUUCUACAGUCCGACGAUC … UGGAAUUCUCGGGUGCCAA
Residues (chain): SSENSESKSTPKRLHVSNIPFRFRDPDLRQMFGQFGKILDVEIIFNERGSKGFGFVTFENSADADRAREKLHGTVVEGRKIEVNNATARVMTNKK
`AGUGAGGCAGCUAGUUCUUCCUAUUCCAUUCUCGACCAACCUGCCCUUUCUUAAUAUGACUAGUGGUCUUGAUGCUAGAGUCAACUUACUCUGUUGCUGGCUUUAGCAGA` — result for “RBNS enrichment (R)”: 0.275.
`GAUCACCCGCCAGAGGCGGGGCACGAGGCACACUGUGUUAUACUGCAUGAGCCAUGAAUUGGGCUAGAGGAAGCCUUGUCAUCAGAUACUGACCAUAGCAUGUGACACUC`: “RBNS enrichment (R)” 4.85.
`GCUGGAGAUCACUGGAAAGGUGUCUCAGUCACAAAACUUCUCCCUCUACUACUGGAUGAAAUGUCUGCAUUUCCACCAAAAUCUACCCAGUCACCCAGGGAAUAACAACU` — result for “RBNS enrichment (R)”: 0.365.
`UUUCUCUUUCCUAGACUCGCGGUGCUCACAUCCAGACAUUACCUUGUUGGUAGCCCCCAAGUGGCGUGCAGUGACACCAGUAUCUUCUCUGUUGCAUUUUUGCAAUCUUG`: “RBNS enrichment (R)” 0.277.
`AAGGCUGAAUCCUUUUGACUCCUUGCUGUCUGACUCCUCAGUGGACUUGUUCCUCCAAAGCAGAACCCGGGAGGUUGCUAUCUGCCAGAAGCCUAGGCCAGCCAGAUACC`: “RBNS enrichment (R)” 0.195.
`GGGGAAGAGUGUGCUCUAGCAGGCCGUGAUCCCAGAGCCAGCAGGAUUGAUGACCAGGGCCCUUCCUUUCCUCUCCAGGGUCUCAAGUUGCCCCUGUCACUGGGGGAACA`: “RBNS enrichment (R)” 0.203.
For `ACAGCCCCCUACCCGUCCCCCUCGCCUCACACGGUCCCUCUCCGAGGCCGAGAAGACCUUCUGUUCCUGUAAAUACAGCCAGCAAGUGCAAACUGUGAUUUUAUUUUCCA`, “RBNS enrichment (R)” read 0.387.
`AUUCUUAUUCUUUUAUAAUUAUGCGUGGAAGAAGUAGACACAUUAAACGAUUCCAGUUGGAAACAUGCACCUGCCUGAGGUUCCUUCUAAGUCCUGGGGCUCCUGAGUGG`: “RBNS enrichment (R)” 2.14.
For `GGGUGCCGUGCACAGAGCUCCAUGACCAGCUUGGGAAGUUAGAAGGAAGGGGAGGCAGGAGGCUGCUUAGUCUGCUGCCAUGAUGGGCCCCAUGAAUGGUGGCUCUCAAG`, “RBNS enrichment (R)” read 1.09.
Under “RBNS enrichment (R)”, `UGUAGUAUUCAUUUAGCCAUGUCUGCCAUGGGUCCAGAAAUGGGAAAGGGAAUUGCUGUCCUUGCCCUGUGGUAUGCUGCCACCUCUUUGGGAAGCAGGCCUUGCCCCUG` is recorded as 0.244.
Under “RBNS enrichment (R)”, `UUACUGAAAAACUGCACAAGAAGGUACCGUGAAUGUAAUUUCCUAGCAGGCCACUCUGCAUCUGUUAUGUCUCCACCGGAAAAAAAAUAAUCAUGUUGGUGUUUUUGCUU` is recorded as 0.81.
Under “RBNS enrichment (R)”, `UGUCUAGUGGAAGAUGAAUGGACAUGAUCAGUGACACCCCUGCUUGGUUUCUGGCGCUUUCAGAGACGUCUGAGGUUCUUUGCACAGAGACUCCUCAGAUGUGGGAACUC` is recorded as 0.586.

Block 4
Target: Histone acetyltransferase KAT6A, winged helix 1, GST fusion (KAT6A, Homo sapiens, UniProt Q92794, residues 1-85)
Technique: protein binding microarray
Form: double-stranded DNA, one strand shown
Matrix: in vitro
Tested at: not given
Notes: 8-mer, flanks averaged, mean of 2 arrays, mostly near background
Baseline: not given
Reading: higher = stronger binding
Residues (chain): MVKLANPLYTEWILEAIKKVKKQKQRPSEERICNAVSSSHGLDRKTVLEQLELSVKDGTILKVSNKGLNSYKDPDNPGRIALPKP
The E-score of `AGTACGCA` is reported as 0.11.
`CGGTACCA` gave an E-score of 0.114.
For `AAAGATCG`, the E-score was -0.08.
With `CCATGTTA` the E-score was -0.145.
For `ACTTTAGC`, the E-score was -0.0637.
`ATTCCGCG` has an E-score of 0.326.
The E-score of `ACCTTTCA` is reported as -0.162.
With `GTGATATA` the E-score was -0.0127.
`AAACTTTC` has an E-score of -0.108.
The E-score of `GGAGCTCA` is reported as -0.101.
`CGGAGGCA` gave an E-score of 0.0485.
With `ACCTGAGC` the E-score was -0.00504.
The E-score of `GTATGTAA` is reported as -0.0955.
The E-score of `GAAGCGGA` is reported as 0.129.
For `ACGGTTTC`, the E-score was 0.149.
With `ATGCTGAA` the E-score was -0.209.

A few entries again (block 2):
For `AAAUAUCAGUGAUCAUCGCAAGGAAGGAGGCAGACAAGAGUAAGGCACACCUGACUCUUAGGACUAGCAGUCAGAACCAGGAGGAAAGGU`, the log2 enrichment was -0.173.
For `AAGUCCUGUGCUACACAUCGUAUGUACCGAAUCGGAAAGGAAAAAGGUUUUUUUGGAAAGUAUUAUGUUACGCCGUUCGGAUCUGCACUU`, the log2 enrichment was -0.185.
`UUGUGAGAGCCACAGGAAAAGCAAGAAGGAGAAGAAGAAAAAGAAAAAGAGGAAACACAAGAAAGAGAAGAAGAAGAAAGACAAAGAGCA` has a log2 enrichment of 0.251.
With `CAAGUCCUGUGCUACACAUCGUAUGUACCGAAUCGGUUUUUGGAAAAAGGUUUGGAAAGUAUUAUGUUACGCCGUUCGGAUCUGCACUUC` the log2 enrichment was -0.384.
`GUAGCUGCUCCAGUGGGCCCAGUGGGCCCCACUCCUACAGUUUUGCCCAUGGGAGCCCCUGUUCCCCGGCCUCGUGGUCCCCCACCGCCC` has a log2 enrichment of -0.396.
For `UAACUUUAGAGGAGGAUCUGAUGGAUAUGGCAGUGGACGUGGAUUUGGGGAUGGCUAUAAUGGGUAUGGAGGAGGACCUGGAGGUGUCAA`, the log2 enrichment was -0.278.
With `GUCCUGUGCUACACAUCGUAUGUACCGAAUCGGUUUUUUUGGAAAAAGGAAAAAAAGGAAAGUAUUAUGUUACGCCGUUCGGAUCUGCAC` the log2 enrichment was -0.15.
